# Assay results pooled from the literature.
# Lines come from different studies, so protocols differ. Several values in a cell are separate wells, animals, samples, runs or records.
# UniProt Q99640, sequence (whole entry, looked up): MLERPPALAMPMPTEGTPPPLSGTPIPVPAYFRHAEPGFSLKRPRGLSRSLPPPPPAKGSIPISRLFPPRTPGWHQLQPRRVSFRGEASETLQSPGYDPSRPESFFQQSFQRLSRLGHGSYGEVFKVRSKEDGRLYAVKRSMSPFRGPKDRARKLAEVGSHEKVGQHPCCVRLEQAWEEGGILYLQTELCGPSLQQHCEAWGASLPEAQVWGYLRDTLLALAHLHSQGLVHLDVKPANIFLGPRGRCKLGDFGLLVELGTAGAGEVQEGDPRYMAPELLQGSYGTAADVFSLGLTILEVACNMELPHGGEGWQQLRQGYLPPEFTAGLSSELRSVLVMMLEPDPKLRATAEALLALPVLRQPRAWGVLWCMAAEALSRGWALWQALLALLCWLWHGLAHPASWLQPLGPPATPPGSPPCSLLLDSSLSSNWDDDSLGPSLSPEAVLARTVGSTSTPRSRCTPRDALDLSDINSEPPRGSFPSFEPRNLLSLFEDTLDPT
# UniProt Q96SW2, sequence (whole entry, looked up): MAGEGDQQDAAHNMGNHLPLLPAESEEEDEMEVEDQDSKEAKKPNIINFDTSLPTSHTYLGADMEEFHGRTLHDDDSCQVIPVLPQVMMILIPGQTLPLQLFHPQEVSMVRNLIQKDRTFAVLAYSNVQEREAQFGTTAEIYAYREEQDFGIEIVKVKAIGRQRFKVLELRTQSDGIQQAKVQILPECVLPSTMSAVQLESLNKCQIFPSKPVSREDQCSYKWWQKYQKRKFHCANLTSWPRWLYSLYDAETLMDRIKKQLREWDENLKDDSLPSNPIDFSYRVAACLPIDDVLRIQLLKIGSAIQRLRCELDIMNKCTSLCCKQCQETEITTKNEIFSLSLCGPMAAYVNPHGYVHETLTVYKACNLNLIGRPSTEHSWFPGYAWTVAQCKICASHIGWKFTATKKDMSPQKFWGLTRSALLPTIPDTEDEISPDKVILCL
# UniProt Q9LIR4, sequence (whole entry, looked up): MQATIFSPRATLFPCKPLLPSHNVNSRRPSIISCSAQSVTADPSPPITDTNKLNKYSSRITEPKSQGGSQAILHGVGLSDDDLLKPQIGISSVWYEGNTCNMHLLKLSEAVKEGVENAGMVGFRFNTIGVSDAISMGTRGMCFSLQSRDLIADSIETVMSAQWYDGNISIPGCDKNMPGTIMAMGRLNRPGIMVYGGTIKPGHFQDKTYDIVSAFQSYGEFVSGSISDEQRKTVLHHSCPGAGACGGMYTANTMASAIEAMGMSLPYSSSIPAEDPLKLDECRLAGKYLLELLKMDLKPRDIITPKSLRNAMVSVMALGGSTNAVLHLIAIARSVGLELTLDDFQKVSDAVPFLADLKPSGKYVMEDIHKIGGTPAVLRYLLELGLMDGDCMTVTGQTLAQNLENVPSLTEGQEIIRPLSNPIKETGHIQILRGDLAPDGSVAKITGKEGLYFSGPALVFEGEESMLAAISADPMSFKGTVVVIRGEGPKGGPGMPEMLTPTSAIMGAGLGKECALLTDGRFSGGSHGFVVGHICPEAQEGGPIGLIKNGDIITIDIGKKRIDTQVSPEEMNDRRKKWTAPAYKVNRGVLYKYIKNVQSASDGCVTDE
# UniProt Q9UKS7, sequence (whole entry, looked up): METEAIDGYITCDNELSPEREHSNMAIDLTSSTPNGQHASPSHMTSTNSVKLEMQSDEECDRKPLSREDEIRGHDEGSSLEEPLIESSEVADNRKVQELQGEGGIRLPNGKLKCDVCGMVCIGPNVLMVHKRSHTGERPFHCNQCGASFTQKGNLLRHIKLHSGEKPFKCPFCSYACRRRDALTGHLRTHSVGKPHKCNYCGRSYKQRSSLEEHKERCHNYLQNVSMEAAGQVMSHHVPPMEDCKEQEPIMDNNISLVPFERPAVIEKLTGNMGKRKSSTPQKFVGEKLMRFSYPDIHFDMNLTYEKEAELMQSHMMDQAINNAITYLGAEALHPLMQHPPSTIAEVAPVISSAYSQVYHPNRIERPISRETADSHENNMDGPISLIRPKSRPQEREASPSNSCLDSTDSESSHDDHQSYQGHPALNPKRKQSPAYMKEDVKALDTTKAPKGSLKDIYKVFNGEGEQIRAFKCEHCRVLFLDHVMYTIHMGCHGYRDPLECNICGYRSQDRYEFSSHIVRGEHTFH
SMILES,tested on,test,system,setting,measurement,value
O=C1CCC(N2Cc3c(ccc4c3OCC43CCN(Cc4ccccc4)CC3O)C2=O)C(=O)N1 (centres unmarked),"CRBN/Zinc finger protein Helios (Homo sapiens, UniProt Q96SW2+Q9UKS7)","degrader, HiBiT",HEK293,123.5 nM,protein remaining,80.7%
C=CCN1C(=O)C(O)(C(=O)O)Oc2cc(F)ccc21 (centres unmarked),"Dihydroxy-acid dehydratase, chloroplastic (DHAD, Arabidopsis thaliana, UniProt Q9LIR4)",microscale thermophoresis,,,Kd,408 µM
Cc1ccc(O)c(C)c1-c1cnc2[nH]c(-c3cnc(N4CCC(CN5CCN(c6ccc(N7CCC(=O)NC7=O)cc6F)CC5)CC4)nc3)cc2c1C#N,"PKMYT1 (Homo sapiens, UniProt Q99640)","binding, HTRF",,1.37 nM,inhibition,17.9% and 16.2%
Cn1cc(-c2cccc(CN3CCC4(CC3)COc3c4ccc4c3CN([C@H]3CCC(=O)NC3=O)C4=O)c2)cn1,Caco-2,,,concentration not given,permeability (basolateral to apical),23.6%
COc1cc(C(=O)OCCCN2CCCN(CCCOC(=O)c3cc(OC)c(OC)c(OCc4ccc([N+](=O)[O-])cc4)c3)CC2)cc(OC)c1OC,,,"male CD-1 mouse, dorsal root ganglia","subcutaneous, dose not given, 8 h",tissue concentration,137 ng/mL

# Some of these lines once more:
SMILES,tested on,test,system,setting,measurement,value
O=C1CCC(N2Cc3c(ccc4c3OCC43CCN(Cc4ccccc4)CC3O)C2=O)C(=O)N1 (centres unmarked),"CRBN/Zinc finger protein Helios (Homo sapiens, UniProt Q96SW2+Q9UKS7)","degrader, HiBiT",HEK293,123.5 nM,protein remaining,80.7%
